# Measured values gathered from unrelated publications.
# A part holds a random share of what one study measured. Changes are numbered by the printed parent chain.

# Series 1 — target: CRIPT, C-terminal peptide; technique: DHFR complementation, deep sequencing; sample: yeast; reference: wild type; reading: higher = weaker binding
# Setting: single substitutions, model-inferred values
# Starting sequence: ERBIN, PDZ domain 1 (human); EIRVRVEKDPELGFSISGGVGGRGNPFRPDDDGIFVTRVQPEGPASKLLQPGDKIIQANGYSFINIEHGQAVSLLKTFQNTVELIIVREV; partner TKNYKQTSV
Variant,binding free energy change
G33T,1.24 kcal/mol
V72L,1.54 kcal/mol
T77L,0.249 kcal/mol
G21M,0.219 kcal/mol
P26K,0.859 kcal/mol
K54C,0.188 kcal/mol
R28Q,0.0264 kcal/mol
R88T,0.316 kcal/mol

# Series 2 — technique: RNA Bind-n-Seq; form: RNA; sample: in vitro; concentration: 100 nM; reference: input RNA pool; reading: higher = stronger binding
# Target: RING finger protein unkempt homolog, zinc fingers 1-6, SBP tag (UNK, Homo sapiens, UniProt Q9C0B0, residues 30-357)
# Sequence of UniProt Q9C0B0 (30-357, looked up): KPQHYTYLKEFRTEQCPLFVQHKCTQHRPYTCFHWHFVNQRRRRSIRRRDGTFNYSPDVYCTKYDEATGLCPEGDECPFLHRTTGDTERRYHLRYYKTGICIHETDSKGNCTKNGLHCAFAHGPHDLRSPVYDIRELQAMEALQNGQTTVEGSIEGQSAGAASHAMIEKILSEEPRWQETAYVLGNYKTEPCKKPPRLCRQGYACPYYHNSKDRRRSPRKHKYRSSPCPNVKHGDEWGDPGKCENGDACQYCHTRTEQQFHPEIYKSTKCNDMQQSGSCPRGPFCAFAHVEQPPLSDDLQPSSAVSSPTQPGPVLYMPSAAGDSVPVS
# Setting: RNA with constant flanks, vertebrate orthologous sites, ends assumed
# Constant ends, left off below: GGGAGUUCUACAGUCCGACGAUC … CAACAGAGGAUUGAGCAUCA
Sequence,bound/input enrichment [ratio]
UCAGUCCCCUGGGCUGGGACAGAUUUUUUUUAACGUCUUGAAACUUAAAUUCUGUGCUUGCAGGAGACUGUAACGUUUUUGUCUUUUUUUUUUUAAACAAACAACCUCCACCUCCAGUAG,0.456
GUCCCUCAGUGACAGCACGCCGUCCGUAGCAGAUUCCCACUCUAGCCACUUUUCUGAAUUUAGUUGCUCUGACCUAGAAAGCAUGAAAACUUCUUGUAGUCAUGGUUCCACUGAUUAUCA,1.83
AAGAUGGUGGUUGUACAUUAUUUCACUUAGAAAAUAUGAAAACUCAUUUUGUUUUGAAGCUAGGUGUUAAACUGGAAUAGCUAUUACGUUCUUGAAAAUGGGGCAGUUGUGCCCUACCCU,1.02
UAUUAGUGUUGUACCAGCCUAUUAACCUCUUGUCUGUGCACAGCUUCAAAUGUUACCGUCUAGUUAGAUUUUUAUUUAAAAUAUGAAAAACUGCUUUUCCCAAGAUGUUUUUUAAAAACA,1.16
AAAUUUACUUCAUGCCUUGGACUCCAUAUAGGACAGACACUCUGAUCGAGUACUCCUCCCUGGAUGACUUCCAAAACGGCCGGCAAACCAUCACCUACAAGCUUCCUCACCGGGUAGAUG,0.512
GGAACAGCAAAUCACUGUGAUAUUUAAAAUAUGCACAGUCCUGAUCUUUCUCCAUGAUCCUAGUAUUUUUCUAGCUGUAUCUUUGUAUCUCAUACUGUUAUUUAUCAGUUUUGUUCCCCU,0.674
UUUUUAAAGUUUUUUUUUAAUUUAAUUUUCCCUUUUGGGGGUAAAGUUUGCUCUACCAAAUAGUGAUUGUAACAAAUUGAUUUGUUAUGGAUGUUGCUAUAGUGACAUGCAGUUACAUAU,0.794
GCUGUUAAUGCACUGUUAUACCAGGCAUUGUCUGAAGUUAGUGUAAUCUAGAAGAUUUUAUAGUUUUAUUUUAAUGAAGUAUGGAUUGAAGCAAAGCUGUUAGGAGUAUGUAGUCUUUUA,3.09

# Series 3 — Variant: D92W; technique: DHFR PCA, deep sequencing; sample: yeast; reference: wild-type fitted maximum; reading: higher = stronger binding
# Target: ABI1, truncated, D143A, DHFR fusion (Arabidopsis thaliana)
# Setting: methotrexate growth selection, single substitutions
# Starting sequence: PYL1, truncated, DHFR fusion (Arabidopsis thaliana); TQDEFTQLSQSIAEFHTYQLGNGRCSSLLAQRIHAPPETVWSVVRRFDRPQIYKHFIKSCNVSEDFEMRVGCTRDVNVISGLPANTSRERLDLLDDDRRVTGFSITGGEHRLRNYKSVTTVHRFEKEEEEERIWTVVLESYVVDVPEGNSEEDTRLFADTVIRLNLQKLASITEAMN
together with,relative binding score
(+)-ABA 0.39 µM,1.58%
(+)-ABA 1.4 µM,-1.94%
(+)-ABA 710 µM,78.9%
(+)-ABA 4.8 µM,-3.6%
(+)-ABA 0.032 µM,-3.72%
(+)-ABA 58 µM,35.3%

# Single results of other studies — starting sequence: viral docking peptide; KGVKRKLFAEDSS
Variant,target,assay,system,setting,scale,quantity,value
KIVKRKLFAEDSS [G2I],"CCNA2, cyclin fold, Cln2 fusion (human)","yeast growth competition, sequencing",yeast,strong parent motif,"reference: not given, higher = stronger binding",normalised enrichment score,5.9

# A few entries again (series 3):
together with,relative binding score
(+)-ABA 4.8 µM,-3.6%
(+)-ABA 0.39 µM,1.58%
(+)-ABA 710 µM,78.9%
